Published values gathered from unrelated publications.
A part holds a random share of what one study measured. Positions count from the first letter of the parent shown.

Sample 1
Target: CCND1, cyclin fold, Cln2 fusion (human)
Method: yeast growth competition, sequencing
Sample: yeast
Setting: weak parent motif
Reference: not given
Reading: higher = stronger binding
Parent: ITGB3BP docking peptide (human); MPVKRSLKLDGLL; partner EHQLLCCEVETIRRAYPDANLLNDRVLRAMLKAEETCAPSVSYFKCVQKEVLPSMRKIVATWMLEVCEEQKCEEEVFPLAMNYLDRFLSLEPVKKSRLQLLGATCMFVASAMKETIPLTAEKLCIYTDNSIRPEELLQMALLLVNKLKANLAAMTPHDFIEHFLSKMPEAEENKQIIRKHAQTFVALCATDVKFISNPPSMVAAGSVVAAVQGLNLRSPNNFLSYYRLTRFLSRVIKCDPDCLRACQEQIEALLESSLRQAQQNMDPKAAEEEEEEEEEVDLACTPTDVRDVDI
Substitution | normalised enrichment score
R5K | -0.0275
V3A | 0.606
L13A | -0.0565
G11A | 0.0635
S6A | 0.285
L12A | 0.0339
M1A | -0.23

Sample 2
Target: Histone acetyltransferase KAT6A, both winged helices, GST fusion (KAT6A, Homo sapiens, UniProt Q92794, residues 1-181)
Method: protein binding microarray
Form: double-stranded DNA, one strand shown
Sample: in vitro
Tested at: not given
Setting: 8-mer, flanks averaged, mean of 2 arrays, mostly near background
Reference: not given
Reading: higher = stronger binding
Target sequence (chain): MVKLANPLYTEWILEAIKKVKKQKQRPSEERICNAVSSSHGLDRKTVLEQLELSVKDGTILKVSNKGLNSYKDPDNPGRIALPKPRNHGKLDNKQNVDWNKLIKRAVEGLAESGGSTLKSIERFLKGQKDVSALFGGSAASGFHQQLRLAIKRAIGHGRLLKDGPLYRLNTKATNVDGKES
Oligonucleotide | E-score
CCTGCAAA | -0.209
AGTTACAT | -0.166
TACATCTA | -0.173
AATGGGGC | -0.139
GACCTCAC | 0.0172
AAAATATC | -0.0758
CTCACAAC | -0.0538
ACCTTTTA | -0.0863
AGGGGGGC | -0.214
ACCAGGGC | 0.021
TTGCGAAA | 0.0365
ACCCTAAT | -0.276
ATGGAGGG | -0.257
AGGAACCT | -0.176
CTCCGTTA | 0.161
AATAGTAC | -0.0969
TACAGCAA | -0.00547
AGGCAGAT | -0.17
CGACCAAC | 0.0519
CGAATAAG | -0.0227
CCCTAACG | 0.0493
ATTCCATC | -0.0312
CCATCCCG | 0.103
CACTTAGA | -0.0851
AAAACTTT | -0.0781

Sample 3
Target: Sal-like protein 4, full length isoform B (SALL4, Homo sapiens, UniProt Q9UJQ4-2, residues 1-616)
Method: universal PBM
Form: double-stranded DNA, one strand shown
Sample: in vitro
Tested at: not given
Setting: 8-mer, flanks averaged, mean of replicates
Reading: higher = stronger binding
Construct (chain): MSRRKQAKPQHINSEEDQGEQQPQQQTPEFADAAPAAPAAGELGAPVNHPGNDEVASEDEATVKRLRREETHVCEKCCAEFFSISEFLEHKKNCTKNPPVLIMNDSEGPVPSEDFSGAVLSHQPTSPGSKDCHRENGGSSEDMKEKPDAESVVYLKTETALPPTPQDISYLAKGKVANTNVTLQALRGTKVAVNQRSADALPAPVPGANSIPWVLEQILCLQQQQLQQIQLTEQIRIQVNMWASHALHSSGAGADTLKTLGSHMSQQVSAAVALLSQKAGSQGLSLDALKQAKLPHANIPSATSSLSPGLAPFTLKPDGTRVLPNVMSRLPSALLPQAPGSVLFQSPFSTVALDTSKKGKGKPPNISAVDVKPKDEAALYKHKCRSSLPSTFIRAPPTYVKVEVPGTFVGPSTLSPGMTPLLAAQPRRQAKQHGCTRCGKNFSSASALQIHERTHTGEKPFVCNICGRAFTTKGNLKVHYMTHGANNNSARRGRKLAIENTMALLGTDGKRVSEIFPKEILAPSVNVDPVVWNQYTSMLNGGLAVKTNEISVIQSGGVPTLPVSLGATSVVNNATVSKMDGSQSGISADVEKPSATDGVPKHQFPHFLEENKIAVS
Oligonucleotide | E-score
AGCCTTTC | -0.251
TCTGGAAA | 0.13
GGAGGGCA | -0.0836
AAAGAATA | 0.309
TCTAACAA | 0.222
AATGAGGT | 0.191
ATCACAGG | -0.0679
CGTCCACG | -0.179
ATTTGAAC | 0.16
AGGATTTC | -0.0312
GCGCACGC | -0.293
CGTCACAA | -0.0853
GATTAACC | -0.111
ACATGCGA | 0.0638
TAAGCGAA | -0.0122
AACGGATA | 0.052
CTAAAGAA | 0.00986
ACTCGCAA | 0.123
GGGCCCTA | -0.179
GCACGCAC | -0.218
GCCCCGGA | -0.42
ACCTTTGG | -0.12
ACCCGCAG | -0.105
GCGGAAAC | -0.101

Sample 4
Target: ABI1, truncated, D143A, DHFR fusion (Arabidopsis thaliana)
Method: DHFR PCA, deep sequencing
Sample: yeast
Setting: methotrexate growth selection, single substitutions
Together with: (+)-ABA 710 µM
Reference: wild-type fitted maximum
Reading: higher = stronger binding
Parent: PYL1, truncated, DHFR fusion (Arabidopsis thaliana); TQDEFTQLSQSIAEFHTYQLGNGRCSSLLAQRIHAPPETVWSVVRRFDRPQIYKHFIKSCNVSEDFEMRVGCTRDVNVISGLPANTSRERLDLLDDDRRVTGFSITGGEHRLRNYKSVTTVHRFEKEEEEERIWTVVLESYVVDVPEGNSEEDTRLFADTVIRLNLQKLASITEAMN; partner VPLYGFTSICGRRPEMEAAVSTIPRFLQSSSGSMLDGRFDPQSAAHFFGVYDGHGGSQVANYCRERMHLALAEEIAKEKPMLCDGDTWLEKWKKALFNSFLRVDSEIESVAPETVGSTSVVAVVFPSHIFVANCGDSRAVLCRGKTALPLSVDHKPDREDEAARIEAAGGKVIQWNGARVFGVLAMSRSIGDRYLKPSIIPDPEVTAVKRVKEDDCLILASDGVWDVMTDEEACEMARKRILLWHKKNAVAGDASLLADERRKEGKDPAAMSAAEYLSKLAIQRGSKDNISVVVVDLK
Substitution | relative binding score
T6D | 101%
E14N | 94.5%
N77I | 104%
H34Q | 93.3%
S42D | 103%
H110G | 72.6%
N22L | 102%
F5Y | 107%
I33L | 67.7%
E125T | 97.7%
I133H | 108%
K116W | 21.4%
F157D | 5.96%
Q19A | 111%

Sample 5
Target: RNA binding protein fox-1 homolog 2, RRM domain, GST-SBP tag (RBFOX2, Homo sapiens, UniProt O43251-10, residues 100-194)
Method: RNA Bind-n-Seq
Form: RNA
Sample: in vitro
Tested at: 365 nM
Setting: natural RNA segment, single round, ends assumed
Reference: no-protein control
Reading: higher = stronger binding
Construct (chain): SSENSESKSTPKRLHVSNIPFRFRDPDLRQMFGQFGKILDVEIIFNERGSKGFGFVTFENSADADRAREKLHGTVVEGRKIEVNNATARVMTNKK
Oligonucleotide | RBNS enrichment (R)
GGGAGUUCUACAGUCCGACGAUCGCAGGUUAGCGUUGAAGGUGGUAUGGAAAAGCCUGCAUGCCUGUUCAAUUCUUUUGUUUCUUCUCCUUCCCCCUCCCCCUACCUCCUUCCCCUCACUCCUCCCCUCCUUCUGGAAUUCUCGGGUGCCAA | 14.4
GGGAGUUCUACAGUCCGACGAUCAGCCUGGCUGAGUGGAGCCUGAGACCUGCACAACAGCUCAUGGUCAUGCAUGAGAGAGAAGUGGCUGGCCACAGCCAGAGGGAACAGUAACAGCCCAGGGGCCUUUAUUUUGGAAUUCUCGGGUGCCAA | 0.398
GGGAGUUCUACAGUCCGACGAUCUGGUCUUGACUAAGCAAUAAGAGCCUCAGAGUUGAUUGAAUUUUAAGGUCCCUUUCUGGCUUCUUGGUUCUCCAUGUGACCAAAGCCCAGUGUGGCUUCAUGGGAGCCCUUGGAAUUCUCGGGUGCCAA | 0.256
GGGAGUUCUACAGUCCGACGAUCUGCCACUCAGAGCCCCUGAGUGAGCCCCCUGGAAUUGUCUGCACCCCCCAAGCCCCAACAGGAAGAAGGGAAAGGUGGGGAAGCUGACGCUCACUCAGUGCCCACUGGGUUGGAAUUCUCGGGUGCCAA | 0.292
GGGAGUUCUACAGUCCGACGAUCUGCCUUCUUCAGAAGCUUGGAAAUCGACACACAAAACAGUGCACAUUUAGUUCACUGCUAAACAAAUUAAAGCACACUUUUCAGGACUUGCUGGGUCACCUUUUCCUGAGUGGAAUUCUCGGGUGCCAA | 0.419
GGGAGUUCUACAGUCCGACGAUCGGGCUGCUUCUCCCUAACCAUCCAUUGUGCAGACUUCUCAUCUAAAAAGGUUGGUGGCUUUUGCUUGGGAUCAGUGCUCUGCUAACGCCCUUGCUGGUCUCUCCACACAUUGGAAUUCUCGGGUGCCAA | 0.248
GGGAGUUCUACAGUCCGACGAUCCAAGCAGGGCUAAGGCACCUUGAACUAGCCAGAUGCAAACAUAGAUUCACUGUGCUUUCCUUUCAAAUCCAGUUCUUCCACAGCAACUAGCCCAUAGUCAGUCUGUGUUCUGGAAUUCUCGGGUGCCAA | 0.373
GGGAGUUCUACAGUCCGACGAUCAGUCUGUGGCUGUUGGGCCUUUAGUUCCACAAUCCCCAUGGCUUAUUAUCCAGUCGGUCCCAUCUAUCCACCUGGCUCCACAGUGCUGGUGGAAGGAGGGUAUGAUGCAGUGGAAUUCUCGGGUGCCAA | 0.221
